Assay results gathered from unrelated publications.
Lines come from different studies, so protocols differ. “And” joins repeats or separate records; there may be more than shown.

| SMILES | target or system | test | test system | setting | scale | measurement | result |
| --- | --- | --- | --- | --- | --- | --- | --- |
| CC(C(=O)Nc1ccc(C2CCCCC2)cc1)n1cncn1 (centres unmarked) | – | – | cryopreserved human hepatocytes | 1 µM | – | hepatic clearance | 13 mL/min/kg |
| CCn1cc(-c2cc(Cn3ccoc3=N)cc3c2CCN([C@@H](C)c2cc(OC)ccn2)C3=O)c(C(F)(F)F)n1 | RMUGS | cell growth | – | 120 h | – | EC50 | > 30 µM |
| Cc1cc(Nc2ncc(Cl)c(Nc3ccccc3S(=O)(=O)C(C)C)n2)c(OC(C)C)cc1C1CCNCC1 | CLB-GE | phosphoproteomics LC-MS/MS, item: SUN2 phosphorylation | – | 200 nM, 60 min | relative to: untreated | log2 fold change | -2.54 |
| O=C(/C=C/C=C/C=C/C1CCCCC1)NC1=C[C@@](O)(/C=C/C=C/C=C/C(=O)NC2=C(O)CCC2=O)[C@@H]2O[C@@H]2C1=O | COLO-741 | cell growth, CellTiter-Glo | – | 78 h | – | GI50 | 17.4 µM |
| COc1cnc2cccc(N3CCc4c(cc(Cn5ccnc5C)cc4-c4cn(C)nc4C(F)(F)F)C3=O)c2c1 | HMCB | cell growth, inhibitor | – | 120 h | – | EC50 | > 30 µM |
| O=C(Nc1ccc(C2CCCCC2)cc1)c1cn[nH]c1 | – | – | mouse liver microsomes | 1 µM | – | hepatic clearance | 70 mL/min/kg |
| C[C@H]1[C@@H](O)O[C@@H]2O[C@@]3(C)CC[C@H]4[C@H](C)CC[C@@H]1[C@@]24OO3 | KCL-22 | annexin V/PI flow cytometry, item: annexin V+/PI- | – | 3.2 µM, 24 h | – | early apoptotic cells | 9.1% |
| Nc1cccc2c1C(=O)N(C1CCC(=O)NC1=O)C2=O (centres unmarked) | MM1.S resistant to compound | XTT | – | 1 µM | – | viability | 88% and 52% and 56% |
| CC(C)NCC(O)c1ccc(O)c(O)c1 (centres unmarked) | mouse ventricular cardiomyocytes | – | – | dose not given, 0.007 s | – | sarcomere length | 1.8 µm |
| CC1(C)CCC(CN2CCN(c3ccc(C(=O)NS(=O)(=O)c4ccc(NCC5CCOCC5)c([N+](=O)[O-])c4)c(Oc4cnc5[nH]ccc5c4)c3)CC2)=C(c2ccc(Cl)cc2)C1 | KCL-22 | annexin V/PI flow cytometry, item: annexin V-/PI- | – | 3.2 µM, 24 h | – | viable cells | 79.9% |
| Cn1cc(-c2ccc(-c3cncc(Cl)c3N3CCC4(CCNC4=O)CC3)cc2)cn1 | COLO 205 | gene expression, microarray, item: G0S2 mRNA | – | concentration not given, 2 h | relative to: untreated cells | log2 fold change | 7.36 |
| O=c1ccn([C@@H]2O[C@H](CO)[C@@H](O)[C@H]2O)c(=O)[nH]1 | activated human T cells | – | – | concentration not given | relative to: DMSO | T cell proliferation | 110% and 98.8% and 101% and 97.4% |
| CCn1cc(-c2cc(Cn3ccnc3)cc3c2CCN([C@H](c2cc(OC)ccn2)C2CC2)C3=O)c(C(F)(F)F)n1 | RMUGS | cell growth | – | 120 h | – | EC50 | > 30 µM |
| O=c1[nH]nc(OCCCc2ccc(Cl)cc2)c(NCc2cccnc2)c1Br | HEK-293T | RNA-seq GSEA, item: Hallmark apical junction | – | concentration not given | direction not given | normalized enrichment score | -1.59 |

Repeated from above:
| SMILES | target or system | test | test system | setting | scale | measurement | result |
| --- | --- | --- | --- | --- | --- | --- | --- |
| O=c1ccn([C@@H]2O[C@H](CO)[C@@H](O)[C@H]2O)c(=O)[nH]1 | activated human T cells | – | – | concentration not given | relative to: DMSO | T cell proliferation | 110% and 98.8% and 101% and 97.4% |
| CCn1cc(-c2cc(Cn3ccnc3)cc3c2CCN([C@H](c2cc(OC)ccn2)C2CC2)C3=O)c(C(F)(F)F)n1 | RMUGS | cell growth | – | 120 h | – | EC50 | > 30 µM |
